Values quoted from earlier work, collected from citations in different studies.
Protocols differ between the studies behind these lines. ± gives the spread as reported.

By UniProt entry, the sequences of proteins in these tests, tags left out.
UniProt P41145, whole entry: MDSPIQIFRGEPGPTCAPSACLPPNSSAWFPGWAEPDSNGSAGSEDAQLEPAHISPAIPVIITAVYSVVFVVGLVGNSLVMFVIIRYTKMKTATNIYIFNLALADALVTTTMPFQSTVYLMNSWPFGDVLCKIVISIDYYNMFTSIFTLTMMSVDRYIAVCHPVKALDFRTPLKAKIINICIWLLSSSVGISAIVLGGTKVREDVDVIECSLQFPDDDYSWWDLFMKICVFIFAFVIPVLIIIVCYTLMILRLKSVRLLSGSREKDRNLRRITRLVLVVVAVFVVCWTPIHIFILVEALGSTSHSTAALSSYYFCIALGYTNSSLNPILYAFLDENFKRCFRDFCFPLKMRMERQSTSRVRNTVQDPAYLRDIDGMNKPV
UniProt P28223, whole entry: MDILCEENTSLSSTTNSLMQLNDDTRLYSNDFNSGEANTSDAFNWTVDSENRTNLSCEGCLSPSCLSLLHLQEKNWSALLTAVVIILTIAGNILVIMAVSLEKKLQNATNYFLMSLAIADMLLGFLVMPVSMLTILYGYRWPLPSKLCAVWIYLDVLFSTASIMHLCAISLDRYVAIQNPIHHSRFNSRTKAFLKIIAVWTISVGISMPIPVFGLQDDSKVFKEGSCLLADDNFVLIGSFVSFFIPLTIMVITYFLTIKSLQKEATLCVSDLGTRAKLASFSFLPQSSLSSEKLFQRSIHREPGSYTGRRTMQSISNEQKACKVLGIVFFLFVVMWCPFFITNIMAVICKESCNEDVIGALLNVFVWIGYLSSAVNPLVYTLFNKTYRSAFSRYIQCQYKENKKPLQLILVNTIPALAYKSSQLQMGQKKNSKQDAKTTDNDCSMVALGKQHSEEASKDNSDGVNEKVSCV

Structure (SMILES)	tested on	assay	system	setting	scale	endpoint	value
O=CN(O)C/C=C/P(=O)(O)O	Plasmodium falciparum	parasite growth, inhibitor	3D7	–	–	IC50	13 to 19 nM
c1ccc2c(c1)ccc[n+]2CCCCCCCCCC[n+]1cccc2ccccc21	muscle-type nicotinic acetylcholine receptor	acetylcholine-evoked current, antagonist	–	with: acetylcholine 100 µM	–	IC50	570 ± 5 nM
CN(CCNCc1cc(Cl)cc(Cl)c1)c1nc2nc(Cl)ccc2[nH]1	Trypanosoma brucei	cell growth	–	–	–	EC50	22 nM
NCCNCCSc1ccccc1	–	–	urine	100 µg/mL, 30 days, -20 °C	–	long-term stability	93.7 ± 1.5 % remaining
Cc1cc(O)cc(C)c1C[C@H](N)C(=O)N[C@@H]1CCNc2ccc(CC3Cc4ccccc4C3)cc21	OPRK1 (Homo sapiens, UniProt P41145)	agonist	–	–	relative to: U-69593 at 10 µM	maximal stimulation	38%
CN(C)c1ccc(C(=O)NCCCNC(=O)CS)cc1	primary cortical neurons	–	–	with: homocysteic acid	–	full neuroprotection concentration	10 µM
O=C(N[C@@H]1CC[C@@]2(O)[C@H]3Cc4ccc(O)c5c4[C@@]2(CCN3CC2CC2)[C@H]1O5)c1ccncc1F	mu opioid receptor	binding	–	–	–	Ki	0.36 nM
O=C(Cc1cccs1)NC(B(O)O)c1cccc(C(=O)O)c1 (stereo not drawn)	Enterobacter cloacae P99 AmpC β-lactamase	inhibitor	–	–	–	Ki	29 nM
CCC(=O)Nc1c(NC[C@H](O)[C@H](O)[C@H](O)CO)[nH]c(=O)[nH]c1=O	Bacillus subtilis lumazine synthase	uncompetitive inhibitor	–	pH 7.0	–	Kis	56 ± 12 µM
Nc1nc(Cl)nc2c1ncn2[C@H]1[C@H](O)[C@H](O)[C@]2(CO)C[C@H]12	HTR2A (Homo sapiens, UniProt P28223)	–	–	10 µM, with: [3H]ketanserin	–	inhibition	5%
CCCCCCCCCCCCNC(=O)N[C@H](C(=O)N[C@H]1/C=C/CCNC(=O)/C=C/[C@H](C)NC1=O)C(C)C	immunoproteasome trypsin-like site	enzyme activity, inhibitor	purified proteasome	–	–	Ki	250 nM
CN(C(=O)Cc1ccc(Cl)c(Cl)c1)[C@@H]1CCCC[C@H]1N1CCCC1	Trypanosoma brucei	parasite growth	–	–	–	Hill slope	1.3
C=CCN1CC[C@]23c4c5ccc(O)c4O[C@H]2[C@H](NC(=O)c2cccc(I)c2)CC[C@@]3(O)[C@H]1C5	–	tail flick analgesia	CD1 mice	–	–	ED50	0.6 mg/kg
CNCCNC(=O)c1cc2c([nH]c3c(C)cccc32)c(-c2ccc(Cl)c(Cl)c2)n1	Plasmodium falciparum	–	–	concentration not given, rescue by IPP supplementation, with: exogenous IPP	–	growth inhibition	no effect
N[C@@H](Cc1ccc(O)cc1)C(=O)N1Cc2ccccc2C[C@H]1CN[C@@H](CC1CCCCC1)C(=O)N[C@@H](Cc1ccccc1)C(=O)O	–	muscle contraction, agonist	guinea pig ileum	–	–	IC50	inactive

Excerpt of the above:
Structure (SMILES)	tested on	assay	system	setting	scale	endpoint	value
O=CN(O)C/C=C/P(=O)(O)O	Plasmodium falciparum	parasite growth, inhibitor	3D7	–	–	IC50	13 to 19 nM
c1ccc2c(c1)ccc[n+]2CCCCCCCCCC[n+]1cccc2ccccc21	muscle-type nicotinic acetylcholine receptor	acetylcholine-evoked current, antagonist	–	with: acetylcholine 100 µM	–	IC50	570 ± 5 nM
